Experimental data collected from several papers.
Values joined by “and” are separate records of one study, mostly repeats; a detail may differ. ± gives the spread as reported.
Lysophospholipase-like protein 1: Lysophospholipase-like protein 1 (Mus musculus, UniProt Q3UFF7)
UniProt Q3UFF7, sequence (whole entry, looked up): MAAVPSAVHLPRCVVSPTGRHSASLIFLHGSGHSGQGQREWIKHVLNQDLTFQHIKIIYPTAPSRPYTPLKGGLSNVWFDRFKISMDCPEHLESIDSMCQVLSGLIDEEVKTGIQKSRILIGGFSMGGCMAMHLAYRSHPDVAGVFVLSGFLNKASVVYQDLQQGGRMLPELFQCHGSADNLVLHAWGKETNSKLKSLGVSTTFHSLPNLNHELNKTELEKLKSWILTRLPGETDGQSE
USP5: Ubiquitin carboxyl-terminal hydrolase 5 (USP5, Homo sapiens, UniProt P45974)
UniProt P45974, sequence (whole entry, looked up): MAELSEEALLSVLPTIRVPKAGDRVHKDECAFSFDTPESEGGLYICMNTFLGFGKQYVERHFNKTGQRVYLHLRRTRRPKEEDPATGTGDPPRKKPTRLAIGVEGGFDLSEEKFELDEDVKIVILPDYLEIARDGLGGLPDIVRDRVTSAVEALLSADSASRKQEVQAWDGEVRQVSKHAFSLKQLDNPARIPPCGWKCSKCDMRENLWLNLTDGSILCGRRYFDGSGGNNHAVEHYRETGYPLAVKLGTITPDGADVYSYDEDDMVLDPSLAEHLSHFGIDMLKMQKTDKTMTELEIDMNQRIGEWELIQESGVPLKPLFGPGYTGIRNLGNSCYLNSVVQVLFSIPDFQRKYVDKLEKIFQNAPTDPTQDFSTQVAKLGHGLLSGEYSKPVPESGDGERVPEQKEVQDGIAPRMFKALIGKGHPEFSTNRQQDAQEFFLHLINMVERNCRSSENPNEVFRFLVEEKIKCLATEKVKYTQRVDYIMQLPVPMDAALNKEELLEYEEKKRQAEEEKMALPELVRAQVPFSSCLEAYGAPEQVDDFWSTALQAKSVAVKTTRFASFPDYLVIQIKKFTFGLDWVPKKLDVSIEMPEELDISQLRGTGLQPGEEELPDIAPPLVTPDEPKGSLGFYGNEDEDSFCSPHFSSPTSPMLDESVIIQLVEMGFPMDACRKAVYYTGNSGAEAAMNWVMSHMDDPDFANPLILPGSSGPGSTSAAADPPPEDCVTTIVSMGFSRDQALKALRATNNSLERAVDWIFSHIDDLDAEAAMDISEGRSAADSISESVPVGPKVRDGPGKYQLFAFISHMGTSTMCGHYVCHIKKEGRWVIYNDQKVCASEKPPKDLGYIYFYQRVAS
CASP4: Caspase-4 (CASP4, Homo sapiens, UniProt P49662)
UniProt P49662, sequence (whole entry, looked up): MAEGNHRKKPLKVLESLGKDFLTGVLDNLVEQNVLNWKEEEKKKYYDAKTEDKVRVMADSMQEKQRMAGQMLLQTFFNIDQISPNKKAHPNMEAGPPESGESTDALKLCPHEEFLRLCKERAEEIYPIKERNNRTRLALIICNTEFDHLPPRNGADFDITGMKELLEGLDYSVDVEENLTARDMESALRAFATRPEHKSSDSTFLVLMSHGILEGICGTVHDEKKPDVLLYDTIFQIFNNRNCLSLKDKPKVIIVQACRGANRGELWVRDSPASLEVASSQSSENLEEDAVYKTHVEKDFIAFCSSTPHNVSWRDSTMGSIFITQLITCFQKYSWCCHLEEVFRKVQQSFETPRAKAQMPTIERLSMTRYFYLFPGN
DHODH: Dihydroorotate dehydrogenase (quinone), mitochondrial (DHODH, Homo sapiens, UniProt Q02127)
UniProt Q02127, sequence (whole entry, looked up): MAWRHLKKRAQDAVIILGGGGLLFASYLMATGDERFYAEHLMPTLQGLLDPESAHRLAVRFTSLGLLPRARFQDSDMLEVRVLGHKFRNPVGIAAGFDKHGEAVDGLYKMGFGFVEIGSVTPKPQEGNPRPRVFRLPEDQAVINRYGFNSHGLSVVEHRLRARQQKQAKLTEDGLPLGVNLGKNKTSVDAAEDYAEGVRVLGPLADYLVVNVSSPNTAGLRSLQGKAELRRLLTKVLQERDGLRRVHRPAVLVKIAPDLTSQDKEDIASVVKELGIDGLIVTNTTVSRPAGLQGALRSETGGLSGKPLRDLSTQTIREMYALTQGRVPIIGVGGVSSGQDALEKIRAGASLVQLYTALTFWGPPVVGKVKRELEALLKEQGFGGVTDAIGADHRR
CASP9: Caspase-9 (CASP9, Homo sapiens, UniProt P55211)
UniProt P55211, sequence (whole entry, looked up): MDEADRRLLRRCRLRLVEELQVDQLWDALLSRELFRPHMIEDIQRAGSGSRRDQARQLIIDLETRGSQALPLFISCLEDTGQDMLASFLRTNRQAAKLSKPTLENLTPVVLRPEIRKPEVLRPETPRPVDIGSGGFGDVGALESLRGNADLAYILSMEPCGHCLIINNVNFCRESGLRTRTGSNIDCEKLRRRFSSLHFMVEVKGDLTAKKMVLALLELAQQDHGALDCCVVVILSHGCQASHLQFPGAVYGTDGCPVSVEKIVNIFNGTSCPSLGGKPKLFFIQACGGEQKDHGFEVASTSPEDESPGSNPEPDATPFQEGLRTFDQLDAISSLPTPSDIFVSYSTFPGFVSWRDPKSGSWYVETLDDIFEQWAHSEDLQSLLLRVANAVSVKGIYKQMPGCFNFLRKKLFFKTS
T1: preQ1 riboswitch RNA A13 2-aminopurine (Thermoanaerobacter tengcongensis); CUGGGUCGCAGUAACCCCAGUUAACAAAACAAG
UniProt Q92633, sequence (whole entry, unmodified, looked up): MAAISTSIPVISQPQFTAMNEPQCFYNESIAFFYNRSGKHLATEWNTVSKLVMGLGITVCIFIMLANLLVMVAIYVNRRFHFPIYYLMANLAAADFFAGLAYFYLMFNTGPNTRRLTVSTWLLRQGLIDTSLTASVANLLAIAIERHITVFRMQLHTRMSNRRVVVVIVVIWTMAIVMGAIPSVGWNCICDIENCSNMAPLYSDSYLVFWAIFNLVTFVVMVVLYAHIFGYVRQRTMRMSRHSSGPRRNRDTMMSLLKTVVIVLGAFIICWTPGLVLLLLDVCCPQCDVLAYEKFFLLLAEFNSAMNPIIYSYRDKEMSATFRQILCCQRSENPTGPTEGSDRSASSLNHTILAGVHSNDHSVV
UniProt P46089, sequence (whole entry, looked up): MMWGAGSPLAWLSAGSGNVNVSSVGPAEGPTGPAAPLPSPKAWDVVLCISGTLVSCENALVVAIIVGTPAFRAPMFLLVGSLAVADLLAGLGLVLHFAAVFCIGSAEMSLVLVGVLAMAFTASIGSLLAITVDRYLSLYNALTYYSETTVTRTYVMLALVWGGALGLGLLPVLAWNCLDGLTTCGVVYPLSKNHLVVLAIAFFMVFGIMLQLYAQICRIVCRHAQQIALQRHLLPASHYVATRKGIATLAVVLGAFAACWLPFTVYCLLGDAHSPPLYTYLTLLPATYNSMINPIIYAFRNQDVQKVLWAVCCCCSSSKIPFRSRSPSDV
UniProt P17706, sequence (whole entry, looked up): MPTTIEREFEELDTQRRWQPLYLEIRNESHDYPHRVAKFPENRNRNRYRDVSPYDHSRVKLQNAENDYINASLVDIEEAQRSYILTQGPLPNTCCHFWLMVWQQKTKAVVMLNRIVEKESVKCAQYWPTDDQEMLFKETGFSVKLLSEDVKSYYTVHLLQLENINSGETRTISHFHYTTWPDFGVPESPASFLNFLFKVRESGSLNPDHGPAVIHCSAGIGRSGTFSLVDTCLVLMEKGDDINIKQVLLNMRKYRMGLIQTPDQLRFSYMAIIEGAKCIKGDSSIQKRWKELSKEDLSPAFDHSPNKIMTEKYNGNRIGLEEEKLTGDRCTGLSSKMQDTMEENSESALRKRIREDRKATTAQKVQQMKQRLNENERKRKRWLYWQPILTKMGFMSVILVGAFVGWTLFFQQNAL
UniProt Q4G0N4, sequence (whole entry, looked up): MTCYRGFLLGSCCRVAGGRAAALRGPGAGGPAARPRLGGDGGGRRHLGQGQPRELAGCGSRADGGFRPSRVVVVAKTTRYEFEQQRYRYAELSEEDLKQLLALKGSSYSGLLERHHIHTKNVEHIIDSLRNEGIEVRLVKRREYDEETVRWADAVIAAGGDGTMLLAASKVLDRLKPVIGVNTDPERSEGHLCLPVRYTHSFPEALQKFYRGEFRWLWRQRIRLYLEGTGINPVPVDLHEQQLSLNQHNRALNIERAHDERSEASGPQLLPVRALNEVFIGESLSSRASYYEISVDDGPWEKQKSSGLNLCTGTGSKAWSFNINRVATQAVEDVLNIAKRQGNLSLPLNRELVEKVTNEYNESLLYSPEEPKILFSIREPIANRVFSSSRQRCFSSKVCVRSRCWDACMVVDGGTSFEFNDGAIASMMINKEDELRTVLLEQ
UniProt Q96IU4, sequence (whole entry, looked up): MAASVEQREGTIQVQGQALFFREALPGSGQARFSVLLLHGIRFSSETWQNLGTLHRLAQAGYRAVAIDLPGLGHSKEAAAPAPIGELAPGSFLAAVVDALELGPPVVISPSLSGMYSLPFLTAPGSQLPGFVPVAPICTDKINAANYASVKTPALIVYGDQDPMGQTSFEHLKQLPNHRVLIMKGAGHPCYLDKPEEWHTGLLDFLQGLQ
UniProt P0ABQ4, sequence (whole entry, looked up): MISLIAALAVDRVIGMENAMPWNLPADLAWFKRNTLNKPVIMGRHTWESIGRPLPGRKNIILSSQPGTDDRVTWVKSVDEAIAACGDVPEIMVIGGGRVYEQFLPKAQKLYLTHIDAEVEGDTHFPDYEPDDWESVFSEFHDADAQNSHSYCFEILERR
UniProt Q15366, sequence (whole entry, looked up): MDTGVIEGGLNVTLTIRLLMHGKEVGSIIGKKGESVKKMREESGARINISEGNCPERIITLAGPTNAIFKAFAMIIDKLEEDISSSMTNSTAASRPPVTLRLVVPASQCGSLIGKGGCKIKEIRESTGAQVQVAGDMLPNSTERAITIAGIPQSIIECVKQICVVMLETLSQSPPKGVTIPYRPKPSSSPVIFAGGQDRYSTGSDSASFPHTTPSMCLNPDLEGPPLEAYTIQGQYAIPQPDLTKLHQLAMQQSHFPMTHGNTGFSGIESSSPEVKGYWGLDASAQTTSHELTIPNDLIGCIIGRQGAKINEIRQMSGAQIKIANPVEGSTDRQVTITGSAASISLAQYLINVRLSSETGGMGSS
UniProt P62258, sequence (whole entry, looked up): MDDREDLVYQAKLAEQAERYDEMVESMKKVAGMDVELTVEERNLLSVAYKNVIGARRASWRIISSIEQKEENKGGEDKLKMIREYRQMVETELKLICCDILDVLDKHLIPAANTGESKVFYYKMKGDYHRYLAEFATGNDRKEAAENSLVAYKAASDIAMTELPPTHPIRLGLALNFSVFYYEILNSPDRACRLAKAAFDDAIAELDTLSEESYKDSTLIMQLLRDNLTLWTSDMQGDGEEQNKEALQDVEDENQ

| SMILES | target | assay | test system | conditions | scale | endpoint | value |
| --- | --- | --- | --- | --- | --- | --- | --- |
| Nc1nc(SCc2ccc(I)cc2)nn1S(=O)(=O)c1ccc2c(c1)CCO2 | Lysophospholipase-like protein 1 | enzyme activity, activator, gel-based ABPP | purified protein | concentration not given, together with: FP-rhodamine | reference: DMSO | probe labeling increase | 1.5 fold |
| O=C1NNC(c2ccccc2)=N/C1=C\c1ccco1 | USP5 | enzyme activity, inhibitor |  | 17 µM |  | inhibition | 49% |
| CC(=O)N[C@@H](Cc1ccc(I)cc1)C(=O)N[C@@H](CCC(=O)O)C(=O)N[C@H](C(=O)N[C@@H](CC(=O)O)C(=O)COC(=O)c1c(C)cccc1C)[C@@H](C)O | CASP4 | enzyme activity, inhibitor |  |  |  | kinact/KI | 50000 M⁻¹ s⁻¹ |
| O=C=[N][Ru-4]123([n]4c5ccc(O)cc5c5c6c(c7cc(F)c[n+]1c7c54)C(=O)NC6=O)[S+]1CC[S+]2CC[S+]3CC1 (stereo not shown) | ABL1 (Homo sapiens, UniProt P00519, T315I) | enzyme activity |  | 100 nM, human enzyme, together with: 10 µM ATP | reference: untreated | remaining activity | 107% |
| CC1CCc2c(N)nc(N)nc2C1 (stereo not shown) | folA (Escherichia coli, UniProt P0ABQ4) |  |  | concentration not given, ternary complex with NADPH |  | major state population | 97.5 ± 0.1% |
| CC(=O)N1C[C@H](O)C[C@H]1C(=O)N[C@H](C(=O)N[C@@H](CO)C(=O)N[C@@H](CC(=O)O)C(=O)COC(=O)c1c(C)cccc1C)C(C)C | CASP4 | enzyme activity, inhibitor |  |  |  | kinact/KI | 600 M⁻¹ s⁻¹ |
| CC(=O)C12NC(C)(C)CC1(C)C(=O)C1=C2c2c(c3c4n2C(C)(C)CC2=C4C4(CC(C)(C)NC(C)(C4)C2=O)CC3(C)C)C(=O)C(C)(C)N1 (single isomer, unassigned; (+)) | TRPA1 (Homo sapiens, UniProt O75762) | ion current, inhibitor, patch clamp | HEK-293T | 50 µM |  | inhibition | 1.04% |
| CCN(CC)C(CO)c1cccc2c(C)c(C)oc12 (stereo not shown) | LPAR1 (Homo sapiens, UniProt Q92633, W210A) | G-protein dissociation, agonist, NanoBiT | HEK-293T | 1 nM, W210A mutant | reference: baseline luminescence | fold change | 0.97 and 0.988 and 0.995 and 0.981 and 1 and 1.01 |
| Cc1cc(C)cc(COc2cc3c(cc2OCc2cc(C)cc(C)c2)C2CC(O)(Cc4cn(CCOCCOCCNC(=O)CCCCC5SCC6NC(=O)NC65)nn4)CC(C)N2CC3)c1 (stereo not shown) | RAB7A (Homo sapiens, UniProt P51149) | biotinylated probe pull-down |  | 10 µM probe | reference: heavy over light | SILAC ratio | 1.43 |
| COc1ccc(/C=C2\S/C(=N/c3ccc(F)cc3C(=O)O)NC2=O)cc1 | DHODH | enzyme activity, inhibitor, DCIP reduction |  | 0.1 µM | higher = more activity | reaction rate | -29.7 a.u. |
| O=C1c2sc(-c3ccc(N4CCC(F)C4)nc3F)nc2CCN1c1cccnc1 (stereo not shown) | TAR DNA-binding protein 43, aggregated (TARDBP, Homo sapiens, UniProt Q13148) | radioligand binding | control brain sarkosyl-insoluble extract | 2.52 nM |  | specific binding | 7 pM |
| CSCC[C@H](NC(=O)[C@H](CC(C)C)NC(=O)CNC(=O)[C@@H](NC(=O)[C@H](Cc1ccccc1)NC(=O)[C@H](CO)NC(=O)[C@H](CC(=O)O)NC(=O)[C@@H](NC(=O)[C@H](CCCCN)NC(=O)[C@@H](N)Cc1c[nH]cn1)[C@@H](C)O)C(C)C)C(N)=O | TACR1 (Homo sapiens, UniProt P25103) | cAMP accumulation |  |  | reference: 10 µM forskolin | Emax | 111 ± 11% |
| N=C(N)NCCS(=O)(=O)O | SLC6A6 (Homo sapiens, UniProt P31641, Y138A) | binding, microscale thermophoresis |  | 1.95 µM, room temperature, together with: 50 nM labelled protein | higher = more binding | normalised MST signal | 0.00155 |
| NCc1c[nH]c2nc(N)[nH]c(=O)c12 | T1, preQ1 riboswitch RNA A13 2-aminopurine (Thermoanaerobacter tengcongensis) | 2-aminopurine fluorescence titration |  | apo state, without Mg2+, read off a plot |  | Kd | 2.8 nM |
| CCN(CCCC[C@H](NC(=O)[C@H](CCCN1CCOCC1)NC(=O)[C@@H](NC(=O)[C@H](Cc1ccccc1)NC(=O)c1ccc(C(C)(C)C)cc1)C1CCC1)C(=O)N[C@@H](CO)C(N)=O)C1CC2CCC1C2 (stereo partly shown) | Chromobox protein homolog 8 (Homo sapiens, UniProt Q9HC52) | TR-FRET displacement |  |  | reference: IC50 CBX7 over IC50 CBX8 | selectivity ratio | 34 |
| CC(C)Oc1cc(Cl)ccc1CNc1cc(-c2ccccc2)nc2ncnn12 | GPR3 (Homo sapiens, UniProt P46089) | cAMP reporter | human cells | 100 nM | higher is more cAMP | cAMP luminescence | 36800 a.u. and 47900 a.u. and 25100 a.u. and 14900 a.u. and 38000 a.u. and 41000 a.u. and 29100 a.u. |
| O=C1CCCC(O)=C1C1(O)C(=O)c2ccccc2C1=O | USP5 | enzyme activity, inhibitor |  | 17 µM |  | inhibition | 84% |
| COc1cc(C2C(NC(=O)c3ccc(NC(=O)OC(C)(C)C)cc3)(C(=O)O)C(c3ccc(OC(=O)c4cccs4)c(OC)c3)C2(NC(=O)c2ccc(NC(=O)OC(C)(C)C)cc2)C(=O)O)ccc1OC(=O)c1cccs1 (stereo not shown) | GLP1R (Homo sapiens, UniProt P43220, R299A) | cAMP accumulation, agonist |  | receptor mutant | reference: wild type | Emax | 87.8 ± 9.09% |
| CC(=O)N[C@@H](CC(=O)O)C(=O)N[C@@H](CCC(=O)O)C(=O)N[C@H](C(=O)N[C@@H](CC(=O)O)C(=O)COC(=O)c1c(C)cccc1C)[C@@H](C)OCc1ccccc1 | CASP4 | enzyme activity, inhibitor |  |  |  | kinact/KI | 8200 M⁻¹ s⁻¹ |

| SMILES | target | assay | test system | conditions | scale | endpoint | value |
| --- | --- | --- | --- | --- | --- | --- | --- |
| CN(/N=C/c1ccc(F)cc1C(=O)NO)c1nc(-c2ccccc2Cl)cs1 | DHODH | enzyme activity, inhibitor, DCIP colorimetric |  | 0.51 nM |  | percent effect | 93.8% and 91.7% and 94.2% |
| Nc1nc(SCc2ccccc2)nn1S(=O)(=O)c1ccc(F)cc1 | Lysophospholipase-like protein 1 | enzyme activity, activator, gel-based ABPP | purified protein | concentration not given, together with: FP-rhodamine | reference: DMSO | probe labeling increase | 1 fold |
| CCN1CCN(Cc2ccc(NC(=O)c3ccc(C)c(NC(=O)c4cncc(-c5cccs5)c4)c3)cc2C(F)(F)F)CC1 | ABL1 (Homo sapiens, UniProt P00519, Y253F) | binding, competition with immobilised ligand |  | 1 µM |  | remaining binding | 0.25% |
| CC[C@H](C)[C@H](NC(=O)[C@H](CC(=O)O)NC(C)=O)C(=O)N[C@@H](Cc1ccccc1)C(=O)N[C@@H](Cc1ccccc1)C(=O)N[C@@H](CCCNC(=N)N)C(=O)N[C@@H](Cc1ccc(O)cc1)C(=O)N[C@@H](CC(N)=O)C(=O)NCC(=O)N[C@@H](CCCCN)C(=O)N[C@H](C(=O)N[C@@H](Cc1c[nH]c2ccccc12)C(=O)N[C@@H](Cc1c[nH]c2ccccc12)C(=O)N[C@@H](CCCNC(=N)N)C(=O)O)C(C)C | Insulin (INS, Bos taurus, UniProt P01317) | circular dichroism |  | 0 min, initial stage, together with: INS 350 µM |  | β-strand content | 17% |
| CC(=O)N[C@@H](CC(=O)O)C(=O)N[C@@H](CO)C(=O)N[C@H](C(=O)N[C@@H](CC(=O)O)C(=O)COC(=O)c1c(C)cccc1C)C(C)C | CASP4 | enzyme activity, inhibitor |  |  |  | kinact/KI | 17200 M⁻¹ s⁻¹ |
| CC1(C)C[C@@H](Nc2cccc(-c3sc(C(=O)O)c(OCC(=O)O)c3Cl)c2)CCN1S(=O)(=O)Cc1cccc(NC(=O)CN2CCC(c3ccc4c(c3)oc(=O)n4C3CCC(=O)NC3=O)CC2)c1 (stereo partly shown) | PTPN2 (Homo sapiens, UniProt P17706) | degrader, bio-layer interferometry |  | 62.5 nM, biotinylated protein immobilised | higher = more binding | BLI binding response | 0.19 a.u. and 0.192 a.u. |
| CCCCCC(O)/C=C/C=O (stereo not shown) | NAD kinase 2, mitochondrial (NADK2, Homo sapiens, UniProt Q4G0N4) | acylphosphate-ATP probe SILAC-ABPP, item: C5orf33 | ZAK-transfected HEK293T | 100 µM, together with: acylphosphate-ATP probe | reference: DMSO over compound-treated | probe labelling ratio | 0.62 |
| C=CC(=O)N1CCCC(n2c(=O)c3ncccc3n(Cc3ccc(Oc4ccccc4)cc3)c2=O)C1 (stereo not shown) | Putative protein-lysine deacylase ABHD14B (Homo sapiens, UniProt Q96IU4) | thermal proteome profiling |  | replicate 2 |  | melting temperature | 50.2 °C |
| CCCCCC=CC=C1C(=O)C=CC1CC=CCCCC(=O)O (stereo not shown) | WD repeat domain phosphoinositide-interacting protein 3 (WDR45B, Homo sapiens, UniProt Q5MNZ6) | competitive isoTOP-ABPP | proteome, soluble, MDA-MB-231 | 100 µM, 60 min, together with: iodoacetamide probe | reference: DMSO over compound-treated, higher = stronger cysteine blockade | isoTOP-ABPP competition ratio | 6.7 |
| CC(=O)N[C@@H](CCCNC(=N)N)C(=O)N[C@H](C(=O)N[C@@H](CCCCN)C(=O)N[C@@H](CO)C(=O)N[C@@H](CCCNC(=N)N)C(=O)N[C@H](C(=O)N[C@@H](Cc1c[nH]c2ccccc12)C(=O)N[C@@H](C)C(=O)N[C@@H](Cc1ccc(O)cc1)C(N)=O)[C@@H](C)OP(=O)(O)O)[C@@H](C)O | 14-3-3 protein epsilon (Homo sapiens, UniProt P62258) | binding, SPR |  |  |  | koff | 0.208 s⁻¹ |
| N#CN1CC[C@H](C(=O)Nc2nc3c(s2)CN(C(=O)CN=[N+]=[N-])CC3)C1 | Poly(rC)-binding protein 2 (Homo sapiens, UniProt Q15366) | click pull-down LC-MS/MS | HEK293T cells |  |  | total spectral count | 1 |
| O=C1C2=C(C(=O)c3ccccc31)C(c1ccccc1O)c1sc(=O)[nH]c1S2 (stereo not shown) | USP5 | enzyme activity, inhibitor |  | 17 µM |  | inhibition | 56% |
| CCCC[C@H](NC(C)=O)C(=O)N[C@@H](CCCC(=O)O)C(=O)N1CCC[C@H]1C(=O)N[C@@H](CC(=O)O)C(=O)COC(=O)c1c(C)cccc1C | CASP4 | enzyme activity, inhibitor |  |  |  | kinact/KI | 51400 M⁻¹ s⁻¹ |
| CC(C)CCCC(C)C1CCC2C3=CC=C4CC(O)CCC4(C)C3CCC21C (stereo not shown) | Segment polarity protein dishevelled homolog DVL-2 (Homo sapiens, UniProt O14641) | SPR | sterol PM-mimetic vesicles | 40 nM protein |  | binding | no effect |
| CC(=O)N[C@@H](CCC(N)=O)C(=O)N[C@@H](CC(C)C)C(=O)N1CCC[C@H]1C(=O)N[C@@H](CC(=O)O)C(=O)COC(=O)c1c(C)cccc1C | CASP9 | enzyme activity, inhibitor |  |  |  | kinact/KI | 21800 M⁻¹ s⁻¹ |
| CCOC(=O)C1=C(C)OC2(O)c3ccccc3C(=O)C12O (stereo not shown) | USP5 | enzyme activity, inhibitor |  | 17 µM |  | inhibition | 11% |
| CC(=O)N[C@H](C(=O)N[C@@H](CCCCN)C(=O)N[C@@H](CCC(N)=O)C(=O)N[C@@H](CC(=O)O)C(=O)COC(=O)c1c(C)cccc1C)C(C)C | CASP9 | enzyme activity, inhibitor |  |  |  | kinact/KI | 14600 M⁻¹ s⁻¹ |
| CN(C)c1ccc2c3c(cccc13)C(=O)N(CCc1ccc(S(N)(=O)=O)cc1)C2=O | CA2 (Homo sapiens, UniProt P00918) | binding |  |  |  | emission maximum | 544 nm |

For quick reference, copied from above:
| SMILES | target | assay | test system | conditions | scale | endpoint | value |
| --- | --- | --- | --- | --- | --- | --- | --- |
| CC(=O)C12NC(C)(C)CC1(C)C(=O)C1=C2c2c(c3c4n2C(C)(C)CC2=C4C4(CC(C)(C)NC(C)(C4)C2=O)CC3(C)C)C(=O)C(C)(C)N1 (single isomer, unassigned; (+)) | TRPA1 (Homo sapiens, UniProt O75762) | ion current, inhibitor, patch clamp | HEK-293T | 50 µM |  | inhibition | 1.04% |
| CC(=O)N[C@@H](Cc1ccc(I)cc1)C(=O)N[C@@H](CCC(=O)O)C(=O)N[C@H](C(=O)N[C@@H](CC(=O)O)C(=O)COC(=O)c1c(C)cccc1C)[C@@H](C)O | CASP4 | enzyme activity, inhibitor |  |  |  | kinact/KI | 50000 M⁻¹ s⁻¹ |
| CC1(C)C[C@@H](Nc2cccc(-c3sc(C(=O)O)c(OCC(=O)O)c3Cl)c2)CCN1S(=O)(=O)Cc1cccc(NC(=O)CN2CCC(c3ccc4c(c3)oc(=O)n4C3CCC(=O)NC3=O)CC2)c1 (stereo partly shown) | PTPN2 (Homo sapiens, UniProt P17706) | degrader, bio-layer interferometry |  | 62.5 nM, biotinylated protein immobilised | higher = more binding | BLI binding response | 0.19 a.u. and 0.192 a.u. |
